Experimental data pooled from the literature.
Compare with care: the assays were run in different laboratories. Numbers after ± are the reported error.
ADRA1A: Alpha-1A adrenergic receptor (ADRA1A, Homo sapiens, UniProt P35348)
Sequence of UniProt P35348 (whole entry, looked up): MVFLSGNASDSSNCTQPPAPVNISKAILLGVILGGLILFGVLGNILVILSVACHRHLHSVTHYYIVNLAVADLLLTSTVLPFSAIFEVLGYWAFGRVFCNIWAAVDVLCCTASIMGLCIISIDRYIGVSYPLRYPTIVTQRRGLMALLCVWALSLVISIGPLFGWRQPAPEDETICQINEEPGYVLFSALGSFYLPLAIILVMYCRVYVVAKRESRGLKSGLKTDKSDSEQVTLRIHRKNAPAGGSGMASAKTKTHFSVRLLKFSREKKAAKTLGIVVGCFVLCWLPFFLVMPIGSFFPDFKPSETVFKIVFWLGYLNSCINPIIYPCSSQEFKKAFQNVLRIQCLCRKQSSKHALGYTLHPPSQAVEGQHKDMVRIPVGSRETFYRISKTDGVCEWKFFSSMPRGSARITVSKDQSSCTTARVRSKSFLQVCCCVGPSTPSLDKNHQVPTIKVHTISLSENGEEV
Sequence of UniProt Q8NB16 (whole entry, looked up): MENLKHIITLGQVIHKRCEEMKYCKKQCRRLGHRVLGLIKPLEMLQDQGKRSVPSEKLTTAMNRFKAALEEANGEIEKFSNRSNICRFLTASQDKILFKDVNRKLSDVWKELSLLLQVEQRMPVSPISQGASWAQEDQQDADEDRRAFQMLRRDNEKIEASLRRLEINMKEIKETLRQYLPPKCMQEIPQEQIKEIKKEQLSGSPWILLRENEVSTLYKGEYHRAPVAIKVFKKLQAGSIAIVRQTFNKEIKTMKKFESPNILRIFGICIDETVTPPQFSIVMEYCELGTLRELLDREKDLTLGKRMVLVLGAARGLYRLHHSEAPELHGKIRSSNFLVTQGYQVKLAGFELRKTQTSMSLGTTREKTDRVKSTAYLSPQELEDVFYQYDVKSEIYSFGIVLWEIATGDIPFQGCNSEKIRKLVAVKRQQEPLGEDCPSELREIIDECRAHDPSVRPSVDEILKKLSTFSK
Sequence of UniProt Q14289 (whole entry, looked up): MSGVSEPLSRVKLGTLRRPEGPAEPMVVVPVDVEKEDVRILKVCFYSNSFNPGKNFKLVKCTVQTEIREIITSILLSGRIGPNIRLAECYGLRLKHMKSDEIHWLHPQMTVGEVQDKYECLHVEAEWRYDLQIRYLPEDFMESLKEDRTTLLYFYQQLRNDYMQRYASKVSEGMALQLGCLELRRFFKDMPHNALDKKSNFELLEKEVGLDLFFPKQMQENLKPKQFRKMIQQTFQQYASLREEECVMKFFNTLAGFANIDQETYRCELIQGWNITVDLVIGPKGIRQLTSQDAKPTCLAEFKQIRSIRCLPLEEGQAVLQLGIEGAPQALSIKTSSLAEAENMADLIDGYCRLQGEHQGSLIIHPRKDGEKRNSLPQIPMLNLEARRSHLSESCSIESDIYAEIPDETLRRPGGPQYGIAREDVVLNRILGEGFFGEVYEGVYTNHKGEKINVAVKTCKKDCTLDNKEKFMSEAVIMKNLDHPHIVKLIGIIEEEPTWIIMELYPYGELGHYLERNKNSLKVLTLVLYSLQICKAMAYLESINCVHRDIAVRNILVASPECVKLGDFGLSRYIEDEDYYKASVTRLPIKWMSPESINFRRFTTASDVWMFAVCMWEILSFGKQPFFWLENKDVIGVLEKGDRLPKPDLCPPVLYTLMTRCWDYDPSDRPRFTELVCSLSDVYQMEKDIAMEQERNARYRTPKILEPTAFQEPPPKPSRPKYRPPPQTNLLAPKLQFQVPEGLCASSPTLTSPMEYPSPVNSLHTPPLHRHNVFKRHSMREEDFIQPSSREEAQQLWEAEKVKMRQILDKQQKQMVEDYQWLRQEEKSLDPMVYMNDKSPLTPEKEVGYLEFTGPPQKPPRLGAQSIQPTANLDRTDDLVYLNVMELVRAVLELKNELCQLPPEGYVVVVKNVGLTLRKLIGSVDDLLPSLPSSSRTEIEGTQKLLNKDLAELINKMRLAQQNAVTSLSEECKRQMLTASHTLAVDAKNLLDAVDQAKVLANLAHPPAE
Sequence of UniProt P35408 (whole entry, looked up): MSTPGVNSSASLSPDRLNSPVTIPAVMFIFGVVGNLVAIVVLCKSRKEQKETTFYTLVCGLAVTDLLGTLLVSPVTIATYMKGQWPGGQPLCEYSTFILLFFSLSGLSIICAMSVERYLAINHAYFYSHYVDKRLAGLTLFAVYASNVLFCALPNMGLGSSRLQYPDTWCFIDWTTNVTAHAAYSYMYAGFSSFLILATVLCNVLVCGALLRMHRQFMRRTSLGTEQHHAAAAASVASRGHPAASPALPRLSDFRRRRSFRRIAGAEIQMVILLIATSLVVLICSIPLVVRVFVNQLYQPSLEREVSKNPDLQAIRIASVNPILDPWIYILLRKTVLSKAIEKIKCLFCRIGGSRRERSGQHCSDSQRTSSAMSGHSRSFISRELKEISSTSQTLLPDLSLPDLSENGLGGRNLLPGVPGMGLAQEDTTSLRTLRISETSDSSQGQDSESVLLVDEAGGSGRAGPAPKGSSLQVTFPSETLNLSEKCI
Sequence of UniProt O75582 (whole entry, looked up): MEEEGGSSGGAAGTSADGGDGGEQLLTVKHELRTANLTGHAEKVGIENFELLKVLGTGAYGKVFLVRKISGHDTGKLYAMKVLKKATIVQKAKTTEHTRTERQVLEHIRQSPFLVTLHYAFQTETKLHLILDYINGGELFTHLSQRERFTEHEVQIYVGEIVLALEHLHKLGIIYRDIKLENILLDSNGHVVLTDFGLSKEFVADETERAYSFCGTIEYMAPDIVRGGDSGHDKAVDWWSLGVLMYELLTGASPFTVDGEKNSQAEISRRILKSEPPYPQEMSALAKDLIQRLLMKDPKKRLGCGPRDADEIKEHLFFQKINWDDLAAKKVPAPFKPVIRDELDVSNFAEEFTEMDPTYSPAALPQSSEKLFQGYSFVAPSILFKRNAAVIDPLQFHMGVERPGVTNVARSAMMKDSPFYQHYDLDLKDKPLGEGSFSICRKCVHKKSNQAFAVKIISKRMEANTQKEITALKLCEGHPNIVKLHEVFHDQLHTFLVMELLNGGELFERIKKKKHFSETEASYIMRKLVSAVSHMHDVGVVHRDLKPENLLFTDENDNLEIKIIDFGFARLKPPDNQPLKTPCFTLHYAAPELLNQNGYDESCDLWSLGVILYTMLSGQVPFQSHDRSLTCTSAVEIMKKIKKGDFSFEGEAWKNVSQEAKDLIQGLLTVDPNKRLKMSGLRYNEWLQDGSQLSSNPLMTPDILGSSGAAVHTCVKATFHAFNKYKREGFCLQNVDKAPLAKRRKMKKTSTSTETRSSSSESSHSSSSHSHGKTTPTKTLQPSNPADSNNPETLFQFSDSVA
Sequence of UniProt Q9NRG4 (whole entry, looked up): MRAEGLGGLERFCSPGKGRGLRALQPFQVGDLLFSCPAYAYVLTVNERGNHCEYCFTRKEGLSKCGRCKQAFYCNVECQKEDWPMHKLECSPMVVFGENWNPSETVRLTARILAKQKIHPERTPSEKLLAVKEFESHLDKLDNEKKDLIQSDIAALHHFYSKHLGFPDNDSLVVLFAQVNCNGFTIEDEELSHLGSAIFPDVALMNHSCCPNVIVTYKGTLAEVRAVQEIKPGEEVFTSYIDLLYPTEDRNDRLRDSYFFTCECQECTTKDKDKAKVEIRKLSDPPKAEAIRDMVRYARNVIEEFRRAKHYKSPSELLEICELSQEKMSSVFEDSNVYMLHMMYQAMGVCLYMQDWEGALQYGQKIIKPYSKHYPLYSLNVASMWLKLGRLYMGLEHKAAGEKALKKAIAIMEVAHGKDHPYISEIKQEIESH
Sequence of UniProt Q9UNU6 (whole entry, unmodified, looked up): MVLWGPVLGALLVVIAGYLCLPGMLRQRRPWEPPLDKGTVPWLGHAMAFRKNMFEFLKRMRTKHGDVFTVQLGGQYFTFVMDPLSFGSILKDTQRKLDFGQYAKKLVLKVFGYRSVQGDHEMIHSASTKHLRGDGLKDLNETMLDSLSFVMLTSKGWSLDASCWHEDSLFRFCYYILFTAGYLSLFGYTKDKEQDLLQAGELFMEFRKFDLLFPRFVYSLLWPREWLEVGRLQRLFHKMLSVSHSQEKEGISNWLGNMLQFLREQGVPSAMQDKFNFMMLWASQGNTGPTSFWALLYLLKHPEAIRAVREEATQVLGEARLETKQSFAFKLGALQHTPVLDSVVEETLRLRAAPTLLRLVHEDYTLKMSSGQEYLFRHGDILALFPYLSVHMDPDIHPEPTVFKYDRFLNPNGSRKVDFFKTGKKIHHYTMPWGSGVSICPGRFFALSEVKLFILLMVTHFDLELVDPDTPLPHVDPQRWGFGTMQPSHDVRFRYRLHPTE
Sequence of UniProt P06276 (whole entry, looked up): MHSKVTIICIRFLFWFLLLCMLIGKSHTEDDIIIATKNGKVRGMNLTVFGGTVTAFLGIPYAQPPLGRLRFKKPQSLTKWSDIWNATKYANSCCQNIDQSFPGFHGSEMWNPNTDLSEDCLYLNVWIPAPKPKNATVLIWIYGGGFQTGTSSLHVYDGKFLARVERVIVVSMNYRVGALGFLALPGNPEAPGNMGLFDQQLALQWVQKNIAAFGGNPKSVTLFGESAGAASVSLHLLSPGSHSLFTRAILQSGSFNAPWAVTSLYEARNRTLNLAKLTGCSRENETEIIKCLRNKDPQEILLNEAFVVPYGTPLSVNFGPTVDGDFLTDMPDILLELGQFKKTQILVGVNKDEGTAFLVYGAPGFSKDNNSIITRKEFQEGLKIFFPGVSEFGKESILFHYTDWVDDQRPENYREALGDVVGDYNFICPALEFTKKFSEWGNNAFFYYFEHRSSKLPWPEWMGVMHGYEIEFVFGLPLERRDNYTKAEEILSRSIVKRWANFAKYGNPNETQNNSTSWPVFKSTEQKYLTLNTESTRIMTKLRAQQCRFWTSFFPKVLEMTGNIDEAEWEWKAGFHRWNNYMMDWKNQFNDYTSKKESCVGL

`CCc1nnc(-c2c(OC)cc(-c3cnc4cc(-c5cnn(C)c5)ccn34)cc2OC)o1` gave an inhibition of 41% (ADRA1A; antagonist radioligand, radioligand binding; 10 µM, SafetyScreen44 alpha 1 A).
`C[C@H](NCc1ccc(-c2ccc(C(F)(F)F)cc2)cc1)C(N)=O` has an inhibition of -5% (PDE4, human; enzyme activity; biochemical; 1 µM, with: [3H]cAMP 1.01 µM).
`Cc1ccc2cc(C(=O)N3CCCC3Cn3ccnc3)ccc2n1` (stereo not shown) has an inhibition of 35.4% (Cholinesterase (BCHE, Homo sapiens, UniProt P06276); enzyme activity, inhibitor, Ellman; 10 µM).
With `N#Cc1ccc(N2N=C3c4ccc(C(=O)O)cc4CCC3C2C2CCCC2)cc1Cl` (stereo not shown) the inhibition was 0% (N-lysine methyltransferase SMYD2 (SMYD2, Homo sapiens, UniProt Q9NRG4); enzyme activity, inhibitor; 10 µM).
`CN(/N=C/c1ccccc1C(=O)O)c1nc(-c2ccccc2Cl)cs1` has an inhibition of -18.9% (Epithelial discoidin domain-containing receptor 1 (DDR1, Homo sapiens, UniProt Q08345); enzyme activity, inhibitor; 1 µM).
With `CC(C)[C@H]1NC(=O)C[C@H]2/C=C/CCSSC[C@@H](NC1=O)C(=O)N[C@H](Cc1cccc3ccccc13)C(=O)NCC(=O)O2` the inhibition was 2.1% (ALK tyrosine kinase receptor (ALK, Homo sapiens, UniProt Q9UM73); enzyme activity, inhibitor; 10 µM).
The inhibition of `CN[C@@H]1[C@H](O)[C@H](NC)[C@H]2O[C@]3(O)[C@H](O[C@@H]2[C@H]1O)O[C@H](C)C[C@H]3NC(=O)Cc1ccc(Cl)cn1` is reported as -9% (Prostaglandin E2 receptor EP4 subtype (PTGER4, Homo sapiens, UniProt P35408); ligand displacement, radioligand; 10 µM).
With `CCOC(=O)[C@](CC)(CCCSCCOCCOCCNC(=O)c1ccc(-c2c3ccc(=N)c(S(=O)(=O)O)c-3oc3c(S(=O)(=O)O)c(N)ccc23)c(C(=O)O)c1)NC(=O)c1ccc(C2CC2)c(Cc2ccc(F)cc2)n1` the inhibition was 14% (Prostaglandin F2-alpha receptor (PTGFR, Homo sapiens, UniProt P43088); ligand displacement, radioligand; 10 µM).
With `O=C1c2ccccc2CCCN1CCCCN1CCN(c2cccc(Cl)c2Cl)CC1` the inhibition was 97.5% (5-hydroxytryptamine receptor 1D (HTR1D, Homo sapiens, UniProt P28221); radioligand binding; concentration not given, with: [3H]5-CT).
`CCN(CC)CCOc1ccc(-c2nnn(Cc3ccc(OC)cc3)c2N)cc1` gave an inhibition of 14.8% (Sodium channel protein type 5 subunit alpha (SCN5A, Homo sapiens, UniProt Q14524); ion channel; HEK293; 10 µM, with: 10000 nM).
For `Cc1cc(Nc2nc(C[C@@]3(C(=O)O)CCN(Cc4cccc(Cl)c4F)[C@H](C)C3)cc(C)c2F)[nH]n1`, the inhibition was -9.65% (5-hydroxytryptamine receptor 1A (HTR1A, Homo sapiens, UniProt P08908); inhibitor; 10 µM).
`C=CC(=O)Nc1cc(-c2nn(C3CCC(N4CCN(C(C)=O)CC4)CC3)c3ncnc(N)c23)ccc1Oc1ccccc1` (stereo not shown) gave an inhibition of 12.9% (Ribosomal protein S6 kinase alpha-5, N-terminal kinase domain (RPS6KA5, Homo sapiens, UniProt O75582); inhibitor, KiNativ profiling; biochemical; 2 µM).
With `CC12CCC(=O)C=C1CCC1C2C=C(c2cccnc2)C2(C)C(=O)CCC12` (stereo not shown) the inhibition was > 40% (7-alpha-hydroxycholest-4-en-3-one 12-alpha-hydroxylase (Homo sapiens, UniProt Q9UNU6, W281F); inhibitor; 80 µM, with: 7α-hydroxycholest-4-en-3-one).
`CN[C@@H]1[C@H](O)[C@H](NC)[C@H]2O[C@]3(O)[C@H](O[C@@H]2[C@H]1O)O[C@H](C)C[C@H]3NC(=O)Cc1cc(Cl)ccn1` gave an inhibition of 6% (Platelet-activating factor receptor (PTAFR, Homo sapiens, UniProt P25105); ligand displacement, radioligand; 10 µM).
With `Cc1ccc2c(n1)c(-c1cccc(S(C)(=O)=O)c1)c(C)n2C/C(F)=C/CN` the inhibition was 13% (protein tyrosine kinase (human); 10 µM).
The epididymis weight of `O=C1NC2(CC2)COc2ncc(F)cc2[C@H]2COCCN2c2ccn3ncc1c3n2` is reported as 1.01 ± 0.084 g (Sprague-Dawley rat, male, epididymides; oral, 10 mg/kg/day, end of treatment, 4-week repeated-dose toxicity).
`N[C@H](C(=O)N1CCCC1)C1CCN(c2nccc3c(-c4ncc(Cl)cc4Cl)cccc23)CC1` gave an inhibition of -13% (GABA-A receptor benzodiazepine site; binding, radioligand binding; 10 µM).
`COc1ccc(F)cc1S(=O)(=O)Nc1cnc2c(c1)C(=O)NCCO2` has an inhibition of -1% (NMDA receptor Phencyclidine site; radioligand binding; 10 µM).
`O=C(O)c1ccccc1/C=N/Nc1nc(-c2ccccc2Cl)cs1` has an inhibition of -6.36% (Protein-tyrosine kinase 2-beta (PTK2B, Homo sapiens, UniProt Q14289); enzyme activity, inhibitor; 1 µM).
The inhibition of `C/C(=N\OCCCN1CCCCC1)c1ccc(C(F)(F)F)cc1` is reported as 4.57% (ADRA1A; antagonist, IP-One; 10 µM).
`CS(C)(=O)=Nc1ccc(-c2ccc(-c3nc4cc(O[C@@H]5CO[C@H]6[C@@H]5OC[C@H]6O)[nH]c4cc3F)cc2)cc1` gave an inhibition of 0% (Serine/threonine-protein kinase 17A (STK17A, Homo sapiens, UniProt Q9UEE5); enzyme activity, inhibitor; 10 µM).
For `CN(C)[C@H]1C[C@@]23CC[C@@]4(O2)C(=CC[C@]2(C)[C@@H](c5ccc6ccncc6c5)CC[C@H]24)C=C3[C@@H](O)[C@@H]1O`, the inhibition was -3.5% (Mixed lineage kinase domain-like protein (MLKL, Homo sapiens, UniProt Q8NB16); ATP probe labelling, inhibitor, KiNativ profiling; 0.1 µM).
